Published values from different studies.
Each line is one published result; not all experiments were run side by side.

| SMILES | test system | conditions | AUC |
| --- | --- | --- | --- |
| CNC(=O)n1ccc2cc(Oc3ccnc(NC(=O)c4ccc(C5CCN(CCO)CC5)cc4)c3)c(OCCOC)cc21 | healthy human, plasma | oral, 35 mg, geometric mean, 0-72 h, alone | 100 ng·h/mL |
| Cc1cc(-c2nccc3c2ccn3CC(=O)Nc2ccc(-c3cnccn3)cn2)ccn1 | human, plasma | oral, 15 mg once daily, day 1, geometric mean | 1.32 µM·h |
| COc1ccnc(C[S+]([O-])c2nc3ccc(OC(F)F)cc3[nH]2)c1OC (stereo not drawn) | human, plasma | intravenous, dose not given, median | 5700 ng·h/mL |
| CN(C)CCC[C@@]1(c2ccc(F)cc2)OCc2cc(C#N)ccc21 | human | intramuscular, dose not given | 955 ng·h/mL |
| O=C(COc1ccc(Cl)cc1)NC12CC(c3nnc([C@H]4C[C@@H](OC(F)(F)F)C4)o3)(C1)C2 | healthy human volunteers fasted, plasma | oral, 15 mg single dose, geometric mean | 14.2 µM·h |
| C#C[C@]1(O)CC[C@H]2[C@@H]3CCC4=CC(=NO)CC[C@@H]4[C@H]3CC[C@@]21CC (mixture of isomers) | human | dose not given, alone | 17.9 ng·h/mL |
| COC(=O)N[C@H](C(=O)N1CCC[C@H]1c1ncc(-c2cc(F)c3c(c2)O[C@@H](c2cnc(C4CC4)s2)n2c-3cc3cc(-c4cnc([C@@H]5CCCN5C(=O)[C@@H](NC(=O)OC)C(C)C)[nH]4)ccc32)[nH]1)C(C)C | healthy adult humans, plasma | oral, 180 mg once daily, day 6, fasted, steady state, alone | 3300 ng·h/mL |
| Cn1cnc2c(F)c(Nc3ccc(Br)cc3Cl)c(C(=O)NOCCO)cc21 | human ESRD on haemodialysis | oral, 50 mg, before dialysis | 1560 ng·h/mL |
| COc1ccc2[nH]c([S@+]([O-])Cc3ncc(C)c(OC)c3C)nc2c1 | human, dried blood spots | oral, 10 mg omeprazole, added: voriconazole | 593 ng·h/mL |
| N#Cc1cc(NC(=O)[C@H]2c3ccccc3C(=O)N(CC(F)(F)F)[C@@H]2c2cccnc2)ccc1F | human, plasma | oral, 150 mg, median | 4250 ng·h/mL |
| CCN(CC)CCNC(=O)c1c(C)[nH]c(/C=C2\C(=O)Nc3ccc(F)cc32)c1C | human patients, plasma | oral, dose not given, cycle 1 day 15 | 2140 ng·h/mL |
| CC#CC(=O)N1CCC[C@H]1c1nc(-c2ccc(C(=O)Nc3ccccn3)cc2)c2c(N)nccn12 | human, plasma | oral, 50 mg single dose | 239 ng·h/mL |

For quick reference, copied from above:
| SMILES | test system | conditions | AUC |
| --- | --- | --- | --- |
| O=C(COc1ccc(Cl)cc1)NC12CC(c3nnc([C@H]4C[C@@H](OC(F)(F)F)C4)o3)(C1)C2 | healthy human volunteers fasted, plasma | oral, 15 mg single dose, geometric mean | 14.2 µM·h |
